Published values pooled from the literature.
Parts stem from different laboratories: compare values within a part only. Changes are numbered by the printed parent chain.

Set 1 — method: RNA Bind-n-Seq; molecule type: RNA; matrix: in vitro; concentration: 365 nM; relative to: no-protein control; reading: higher = stronger binding; quantity: RBNS enrichment (R)
Target: RNA binding protein fox-1 homolog 2, RRM domain, GST-SBP tag (RBFOX2, Homo sapiens, UniProt O43251-10, residues 100-194)
Setting: natural RNA segment, single round, ends assumed
Constant ends, left off below: GGGAGUUCUACAGUCCGACGAUC … UGGAAUUCUCGGGUGCCAA
Target sequence (chain): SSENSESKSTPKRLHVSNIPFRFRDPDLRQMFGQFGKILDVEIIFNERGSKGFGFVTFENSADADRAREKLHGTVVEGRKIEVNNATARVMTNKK
AUCACAGGUUCAGAGAUCUCUUAGGGAAGUUGCUCAAAAUCCUGUUUGUAGUUAAGGUGUCUGGGGUAACAGAUAACAUGGGCCUGAGGGAGCCCUCAGGUCUAUAGGAA: 0.322
CUAGCUGUCAGCUUAAACCCUCUGUAAUAGAACAUGGAAACAGACACAUAAAGACAUUAGCUGAAAAAAUAGAGUGAAAAUCAACUAUUUUUUACUCCCGCUAAUUUCAA: 0.291
AUGGUUUUAAGAAGCAGUUGUACCAAGUGAAAUUAUUUUGGAGAUUAUAAUAAAUAUAUACAUUCAAUCUGAGUUGCAUAUCCUCAGUUUGGGAAAACUUGUGGGGGCUU: 1.62
AUUUCCCAAUUAGUCUGUAUCUAUACUUGGGCUCUGUAUGUGAAUGAAGGUUGGUCACCCAUCCAGCCUAUUACCUUUUGCUUUGUGUAUUAAAAGUGCUGCAAAAUCUG: 0.638
UCUAGUGUAUUUGAAUAUUUUAGAGAAAGCUUUAUCAUUUUUUAAGAUGCCAAGAUGCUGCCUACGUUUGCAAAAGUUGUCUAAGAAUUCACCAUGAGCUAUAUUUUCUU: 0.554
CAAGGAGCUAAUUAUUAAUAACAAUCAUUGCACACUGAGUCUUAGCGUUUCUGAUGGAAACAGUUUGGAUUGUAUAAUAACGCCAAGCCCAGUUGUAGUCGUUUGAGUGC: 0.642
GCUUGUCUCUGACUCGGUUGAGGUCCAUGCUCUGACUUUCUGCACCCUCGUGCUAGGCGAUUCGUGUUACUAUACAAAACCGCAGAAGGAAUUGGGCCACCUGUGGCAUC: 0.323
AGGCCCCCCGAAGCCCUGUGAACCACCUGCUGCCCUGUGAGGCCCCCAAAGCCCUGUGAACUGCCUGCUGUCCUGUGAACUGCCUGCUGCCCUGUGAGGUGUGGGAGCCC: 1.01
ACAAUGUUUCUUCUGCAACUGGCUACUCCUCUUAUAUUAAUGCAUACACUUUUGUAAAGAAGUAUAUUUUUAUGAAAAGAAACUUUGUAAAAGUAUGAUGUAAAUUUUCA: 0.555

Set 2 — target: CCNB3, cyclin fold, Cln2 fusion (human); method: yeast growth competition, sequencing; matrix: yeast; setting: weak parent motif; relative to: not given; reading: higher = stronger binding; quantity: normalised enrichment score
Starting sequence: ORC1 docking peptide (human); PRARKRLELGNLG
LRARKRLELGNLG [P1L]: -0.0601
PRARKRLVLGNLG [E8V]: 0.721
PRARKRLALGNLG [E8A]: 0.139
PRARKRLEVGNLG [L9V]: 0.521
PRARKRLEHGNLG [L9H]: -0.102
PRFRKRLELGNLG [A3F]: 0.156
PRARKRLELVNLG [G10V]: 0.142
CRARKRLELGNLG [P1C]: 0.667
PVARKRLELGNLG [R2V]: 0.193
PRARKRSELGNLG [L7S]: -0.035

Set 3 — method: RNA Bind-n-Seq; molecule type: RNA; matrix: in vitro; concentration: 200 nM; setting: whole 134-nt RNA, ends assumed; added: 150 mM LiCl; relative to: input library; reading: higher = stronger binding; quantity: log2 enrichment; each molecule: 7-deaza-guanosine replaces G
Target: Fragile X messenger ribonucleoprotein 1, C-terminal low-complexity region (Fmr1, Mus musculus, UniProt P35922)
Constant ends, left off below: GGGAGUUCUACAGUCCGACGAUC … UGGAAUUCUCGGGUGUCAAGG
ACCAUGCAGGUGGGCAUCUUUGGGAAGUGGGGCAAGGGGGGGAUAGGGAGGGGGGUAACACUUUGUGAACAGGUGGUCCCAGGUCGUUUC: 1.48
CCUGUGCUACACAUCGUAUGUACCGAAUCGGGGAAAGGGGUUUUUUUGGGGAAAAAGGGGAAAGUAUUAUGUUACGCCGUUCGGAUCUGC: -0.666
UGGGAGGUGGAUUUGGUUUAUUUUUUUAGCUCAUUUCCAGGGGUGGGAAUUUUUUUUUAAUAUGUGUCAUGAAUAAAGUUGUUUUUGAAA: 0.51
CACAGACAACACGCACCCACACAGACACAGAGGGAAGGGGUUGGGAUGGGGACAGGGUGAACAGCAGGGCGGGGUAGGACCCCAGCCCCU: -0.307
GCAGGAAGUAAAAACAAAUGGAAAUGCUUCGGAUAGGGGCAGGGGUGGGGGUUGCUAAGGAAAGGGUGGGAUGGGAGUGGGUAAAGAGUU: 1.34
AAGUCCUGUGCUACACAUCGUAUGUACCGAAUCGGUUUUGGGGUUUUGGGUUUUGGGAAAGUAUUAUGUUACGCCGUUCGGAUCUGCACU: -1.06

Single results of other studies
PhoQ, residues 284 288 289 292 302 303 DDMDFR — fold induction (PhoP, residues 12 14 15 18 19 VQGLL (Escherichia coli, UniProt P23836); Sort-seq, refers to: YFP reporter; E. coli; PhoQ-PhoP variant library, added: 10 µM Mg2+; relative to: high Mg2+ state, higher = stronger signaling): 0.774

Some of these lines once more (set 1):
GCUUGUCUCUGACUCGGUUGAGGUCCAUGCUCUGACUUUCUGCACCCUCGUGCUAGGCGAUUCGUGUUACUAUACAAAACCGCAGAAGGAAUUGGGCCACCUGUGGCAUC: 0.323
AGGCCCCCCGAAGCCCUGUGAACCACCUGCUGCCCUGUGAGGCCCCCAAAGCCCUGUGAACUGCCUGCUGUCCUGUGAACUGCCUGCUGCCCUGUGAGGUGUGGGAGCCC: 1.01
ACAAUGUUUCUUCUGCAACUGGCUACUCCUCUUAUAUUAAUGCAUACACUUUUGUAAAGAAGUAUAUUUUUAUGAAAAGAAACUUUGUAAAAGUAUGAUGUAAAUUUUCA: 0.555
